# Published values gathered from unrelated publications.
# Several values in a cell are separate wells, animals, samples, runs or records. ± gives the spread as reported.
SMILES,tested on,test,system,setting,scale,measurement,result
C=CC(=O)Nc1cccc(Cn2ncc3cnc(Nc4cnn(CCOC)c4)nc32)c1,SGK3 human,"binding, KINOMEscan",,100 nM,lower = stronger binding,percent of control,96%
COc1ccccc1-c1ccncc1C(=O)Nc1nnc(OCc2ccc(Cl)cc2)s1,PEO1 BRCA2-mutant ovarian cancer,,,"0.5 µM, added: olaparib 2 µM",,colony survival,0%
Nc1ncc(-c2cc(-c3cnn(CC(F)(F)F)c3)ncc2F)nc1C(=O)NC1CNCC(F)C1 (stereo not shown),EPHB1,KINOMEscan,,1 µM,relative to: DMSO control,remaining binding,87%
COC1OC(C)C(OC2OC(C)C(OS(=O)(=O)O)C(OC3OC(C)C(OS(=O)(=O)O)C(OS(=O)(=O)O)C3O)C2O)C(OS(=O)(=O)O)C1O (stereo not shown),,,human plasma,128 µg/mL,,thrombin time,9.6 ± 0.7 s
COc1cc2c(NC3CCN(C(C)C)CC3)cc(N3CCOCC3)nc2cc1OCCCN1CCCC1,,"TMT quantitative proteomics, measured: GOT1 (cytoplasmic)","FAD AD model mice, hippocampus",dose not given,,normalised protein abundance,-0.062 and -0.0892 and -0.0827 and -0.0683 and -0.0717 and -0.0822 and -0.08
CC(C)c1ccc(N(C)c2ccc3c(c2)OCC[C@H]3CNc2cnccc2C(=O)O)cc1,HMCB,"cell viability, CellTiter-Glo",,7 days,,IC50,11.1 nM
Cc1ncsc1-c1ccc(C(C)NC(=O)C2CC(O)CN2C(=O)C(NC(=O)CCCCCCCCCCN2CCCC(Nc3ncc(Cl)c(Nc4ccccc4S(=O)(=O)C(C)C)n3)C2)C(C)(C)C)cc1 (stereo not shown),22Rv1,"RNA-seq, measured: NACC2 mRNA",,concentration not given,relative to: DMSO,log2 fold change,-1.33
COC1CN([C@H]2CC[C@H]([C@@]3(C)Oc4c(Cl)cc(C(=O)NCc5c(SC)cc(C)[nH]c5=O)c(C)c4O3)CC2)C1,,"RNA-seq, measured: TMCC2 mouse homolog","mouse, HT-1376 xenograft, whole blood",dose not given,relative to: vehicle,log2 fold change,1.46
COC1OC(C)C(OC2OC(C)C(O)C(OC3OC(C)C(OC4OC(C)C(O)C(OS(=O)(=O)O)C4OS(=O)(=O)O)C(OS(=O)(=O)O)C3OS(=O)(=O)O)C2OS(=O)(=O)O)C(OS(=O)(=O)O)C1OS(=O)(=O)O (stereo not shown),,,human plasma,128 µg/mL,relative to: control,thrombin time prolongation,0.9 fold
COc1cc(O)ccc1CCC(c1ccc(O)cc1)c1cc2c(c(C)c1O)OC(c1ccc(O)cc1)CC2 (mixture of isomers),,,human blood,"30 µM, added: A23187",,5-HETE level,294 ± 178 pg/mL
COC1OC(C)C(OC2OC(C)C(OS(=O)(=O)O)C(OC3OC(C)C(OC4OC(C)C(OS(=O)(=O)O)C(OC5OC(C)C(OS(=O)(=O)O)C(OS(=O)(=O)O)C5OS(=O)(=O)O)C4OS(=O)(=O)O)C(OS(=O)(=O)O)C3OS(=O)(=O)O)C2OS(=O)(=O)O)C(OS(=O)(=O)O)C1OS(=O)(=O)O (stereo not shown),,,human plasma,128 µg/mL,,thrombin time,9.7 ± 0.8 s
Cc1ccc(N(O)/N=N/c2ccc(S(=O)(=O)Nc3nccs3)cc2)cc1,,carrageenan-induced paw edema,Wistar rat,"oral, 100 mg/kg, 2 h after carrageenan, added: carrageenan 1% subplantar",higher = more edema,paw edema volume,6 ± 1.24 a.u.
COC1OC(C)C(OS(=O)(=O)O)C(OC2OC(C)C(OS(=O)(=O)O)C(OC3OC(C)C(OS(=O)(=O)O)C(OC4OC(C)C(OS(=O)(=O)O)C(OC5OC(C)C(OS(=O)(=O)O)C(OC6OC(C)C(OS(=O)(=O)O)C(OC7OC(C)C(OS(=O)(=O)O)C(OS(=O)(=O)O)C7O)C6O)C5O)C4O)C3O)C2O)C1O (stereo not shown),,,human plasma,128 µg/mL,relative to: control,thrombin time prolongation,0.9 fold
CN1CCCNC(=O)c2cccc(c2)C(=O)NCCCN(C)CCCNc2cccc3c2C(=O)c2cccc(c2C3=O)NCCC1,SAS,"RNA-Seq, measured: TST mRNA",,"1 µM, 6 h",relative to: untreated cells,log2 fold change,1.34
CNS(=O)(=O)Nc1nccc(Cc2c(C)c3ccc(Oc4ncccc4F)cc3oc2=O)c1F,SK-MEL3,cell viability,,7 days,,IC50,5.81 nM
C=C(NC(=O)c1csc(-c2nc3c(cc2O)-c2nc(cs2)C(=O)NC(C(C)O)C(=O)NC(=C(C)OC)c2nc(cs2)C(=O)NC2c4nc(cs4)C(=O)NC(COC(=O)c4c5c6c(cccc6n4O)COC(=O)C(OC4CC(C)(O)C(N(C)C)C(C)O4)C2OC5)c2nc-3cs2)n1)C(N)=O (stereo not shown),Streptococcus pneumoniae,,"ATCC 49619, immunocompromised mice, lung infection",tid dosing,,lung bacterial load at ED50,5.34 log CFU/g
COC1OC(C)C(OC2OC(C)C(OS(=O)(=O)O)C(OC3OC(C)C(OC4OC(C)C(OS(=O)(=O)O)C(OC5OC(C)C(OC6OC(C)C(OS(=O)(=O)O)C(OS(=O)(=O)O)C6O)C(OS(=O)(=O)O)C5O)C4O)C(OS(=O)(=O)O)C3O)C2O)C(OS(=O)(=O)O)C1O (stereo not shown),,,human plasma,128 µg/mL,relative to: control,thrombin time prolongation,1 fold
c1ccc(-c2n[nH]cc2-c2ccnc3ccccc23)nc1,MPS1 (Candida albicans),"kinase binding, MIB/MS competition",Candida albicans lysate,1 µM,relative to: DMSO,log2 fold change,0.56
COc1ccc(C(=O)CCc2cc(C(CCc3ccc(O)cc3OC)c3ccc(O)cc3)c(O)cc2OC)cc1 (racemic),,,human blood,"3 µM, added: A23187",,PGE2 level,59 ± 18 pg/mL
COC1OC(C)C(OS(=O)(=O)O)C(OC2OC(C)C(OS(=O)(=O)O)C(OC3OC(C)C(OS(=O)(=O)O)C(OC4OC(C)C(OS(=O)(=O)O)C(OC5OC(C)C(OS(=O)(=O)O)C(OC6OC(C)C(OS(=O)(=O)O)C(OC7OC(C)C(OS(=O)(=O)O)C(OC8OC(C)C(OS(=O)(=O)O)C(OS(=O)(=O)O)C8OS(=O)(=O)O)C7OS(=O)(=O)O)C6OS(=O)(=O)O)C5OS(=O)(=O)O)C4OS(=O)(=O)O)C3OS(=O)(=O)O)C2OS(=O)(=O)O)C1OS(=O)(=O)O (stereo not shown),,,human plasma,128 µg/mL,relative to: control,thrombin time prolongation,1 fold
C=CC(=O)N1[C@@H](c2ccc3c(c2)OCO3)c2[nH]c3ccccc3c2C[C@H]1C(=O)N1CCN(C)CC1,human cyclin E1 wild type-3xFLAG:CDK2,"co-IP with TMT proteomics, measured: PUF60",,"concentration not given, Q9UHX1",relative to: wild type DMSO,relative co-enrichment,96%
CCN(CC)CC(=O)Nc1cccc(-n2cc(-c3ccc4ccc(-c5cn(-c6cccc(NC(=O)CN(CC)CC)c6)nn5)cc4c3)nn2)c1,RCC4,"PCR angiogenesis array, measured: CXCL5",,"5 x IC50, 6 h, normoxia",relative to: untreated,fold regulation,-1.42
